Results of several laboratories.
Every numbered part comes from another study and shows a few of its results, in no order. Positions count from the first letter of the parent shown.

Set 1 — technique: RNA Bind-n-Seq; molecule type: RNA; sample: in vitro; tested at: 365 nM; relative to: no-protein control; reading: higher = stronger binding; quantity: RBNS enrichment (R)
Target: RNA binding protein fox-1 homolog 2, RRM domain, GST-SBP tag (RBFOX2, Homo sapiens, UniProt O43251-10, residues 100-194)
Notes: natural RNA segment, single round, ends assumed
All sequences stand within: GGGAGUUCUACAGUCCGACGAUC … UGGAAUUCUCGGGUGCCAA
Residues (chain): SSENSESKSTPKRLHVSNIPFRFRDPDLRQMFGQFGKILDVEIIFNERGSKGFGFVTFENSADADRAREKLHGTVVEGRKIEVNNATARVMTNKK
UUAUGGUGUCAGUGAGUAGUUUGUAUUAGAAUAAUUUUCCUAUUUCCUACCUUGCUUUCUAGAAAGGCUUUUGCUCCAUACUUCCCUUAAUCUCAGAAUGGAUGGAAAAG: 0.363
AGUCUGCUUCUGUCCCAGCCACAUCCACUUGUCAAUAAAGGCCUUCUGUACCUGACUUUGGGCAACAGGUAUCAAAAGCCUCAAGAGAACAGUUUCUCUGAUAAGAUUAU: 0.396
GGACAGACACCAGACCAUGGAGGUGUCCUGCUAAGCAGAUGCUCCUCCCCUGGACCAUUGCAAGUCCAUCCUUCAAAUGACCACUCCAUAAUAUAACAUUUCAUCCAGUA: 0.328
AGAACCUGAAAGUGCAUACUGAGUUGAGUGUUCAGGCUGCUGUCCUUGGUCUCUCUGCAGUUCUGGGGACCCAACCAAGAGUCACGUGUCUAGGCCAGUGCUUUACCACU: 0.351
CUCACACCCCUUGUGCUAGAGGUGUUCGGCAAUGAGAUCUCCUGACCAGGGUGGCCUGCAGUGGUGCCUGGGUAGGGCCGCUCCUCUGGGGCCCUGUGCCCAGGCCCUGG: 0.268
AAAAAUACUGUAUUUAAAAUGUAAAAUAAACUUUUAAAAAGCAAGCACUAAUAUAUAUUUCUUUCAGCCUUUGAUUACAGUUUUGUCCUUGCACAUGUUAAGAUAAAUUA: 1.28
GACUCAGGACAGAGCAUCUCACGCGAAGUUCUGUGUGGCAGUCAAGUGUUCCUCGUGGAGUCAGCCUGAGGUAGAUUUCCAGGAAAGCCUUUUCCUCGUUACCAGUGUGU: 0.338
AAGAACCUCUCUAUGUCCCUUUUUUUAAUUUAAAAAAAAUGACUCUUGUCUAAUAUUCGUCUAUAAGGGAUUAAUUUUCAGACCCUUUAAUAAGUGAGUGCCAUAAGAAA: 0.698
UCCUGCUUCCCACUAUCCUUUUCCUGUUAUUAUUCAAAUUUUACACAAGGACUAAUCCUGGGUGUCUCUGAGACCCAUCUCCUGCCUAGACAUCCACCUCCAGAGCAACA: 0.942
UCUCUGGUGAGAGGUGGGUUUGAUGUAUCUCUGUCCUAUGCUGGUCUCUCUUCUCCUUUAUAAAAUCCUCUGUGGUCAACUGACUACUGCGUAUCGCAGUGGAAUAAGAC: 0.31
GGUGGUCCCAUAGGUCUUGUGAAAAGGCUUUUUCAGGGAAAAAUAUUUUACUAGUCCAAUCACCCCCAGGACCUCUUCAGCUGCUGACAAUCCUAUUUAGCAUAUGCAAA: 0.33
GGUUCAGGAAGCACGGAGAUUCUCUCCAACAAAGGUCCAGUUAGGAAACGACGCUGAGAGGAUGACGACAACGUGCAACAGCAGAAAGAUGCUUGCAAGCAGAGUCAGGG: 0.539

Set 2 — technique: protein-binding microarray; molecule type: double-stranded DNA, one strand shown; sample: in vitro; tested at: 940 nM top; notes: 60-bp whole probe; together with: salmon DNA 0.4 mg/ml; relative to: random background probes; reading: higher = stronger binding; quantity: fitted relative affinity; all sequences stand within: GCCTAGCAC … GTCTTGATTCGCTTGACGCTGCTG
Target: Interferon regulatory factor 5, full length, phosphomimetic (IRF5, Homo sapiens, UniProt Q13568-2, residues 1-514, S451D/S453D/S456D/S462D)
GACGGTTTCCTTTCCCTTACGTGCTAG: 2.04 z-score
TCAGGTTTCCTTCTCCTTTAGTGCTAG: 1.94 z-score
GACGGACTGGGGACTAGGGACGTGCTA: -0.261 z-score
GACGATATCAGATTGGAGACGTGCTAG: -0.276 z-score
TCAATCCTATATCTGAAACTGTGCTAG: 0.55 z-score
GTGGTTTTCATTATTGCTTCGTGCTAG: 2.03 z-score
GACGGTTTCGGGACGGGGGACGTGCTA: 10.2 z-score
GAATGTGTCTTAAATAGGGCAGTGCTA: -0.288 z-score
TTATAACTGGGGACTGGATTAGTGCTA: 0.301 z-score
TTAGGTCTCCCACTGCTTTAGTGCTAG: -0.189 z-score
TTAGATTTCAGTTCCGATTAGTGCTAG: 2.09 z-score
GGGCATTTGGAAAATGTAAACGTGCTA: -0.124 z-score
GACGATATCGGGACTGGGGACGTGCTA: -0.0322 z-score
GACGGACTGGCCACTGGGGACGTGCTA: -0.73 z-score
GACGGACTGGGTATCGGGAAGTGCTAG: 0.737 z-score
TCACTAGTGTTTTTCTCACTGTGCTAG: 0.414 z-score
TCATTTTTCCCTATTATACTGTGCTAG: 2 z-score
TGAGGTATCGACTTTCGGTTAGTGCTA: 4.77 z-score

Set 3 — target: CCND2, cyclin fold, Cln2 fusion (human); technique: yeast growth competition, sequencing; sample: yeast; notes: weak parent motif; relative to: not given; reading: higher = stronger binding; quantity: normalised enrichment score
Parent: REV3L docking peptide (human); PPVIIKYIIINRF
P2A: -0.667
I9A: -0.317
I4A: -0.264
P1A: -0.167
N11A: 0.266
F13A: 0.408
R12A: -0.0899

Set 4 — technique: RNA Bind-n-Seq; molecule type: RNA; sample: in vitro; tested at: not given; relative to: input RNA pool; reading: higher = stronger binding; quantity: bound/input enrichment
Target: RING finger protein unkempt homolog, zinc fingers 1-6, GST-SBP tag (UNK, Homo sapiens, UniProt Q9C0B0, residues 30-357)
Notes: RNA with constant flanks, human and mouse sites, ends assumed
All sequences stand within: GGGAGUUCUACAGUCCGACGAUC … CAACAGAGGAUUGAGCAUCA
Construct (chain): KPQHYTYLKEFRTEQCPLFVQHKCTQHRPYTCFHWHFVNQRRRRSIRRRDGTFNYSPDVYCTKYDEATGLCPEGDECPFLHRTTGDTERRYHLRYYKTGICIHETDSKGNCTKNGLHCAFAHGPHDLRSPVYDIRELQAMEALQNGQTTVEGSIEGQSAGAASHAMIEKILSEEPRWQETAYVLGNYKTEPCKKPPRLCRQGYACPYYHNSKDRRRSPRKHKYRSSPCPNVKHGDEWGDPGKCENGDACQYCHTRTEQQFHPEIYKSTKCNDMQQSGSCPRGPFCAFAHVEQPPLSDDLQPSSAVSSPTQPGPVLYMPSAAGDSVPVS
UGUUUAGAAGGAAUGAUUCUUGCAGCAAAAUCAGUUGAUGAAAGAAGAGAUUCUCAAAUGGUAGUAGACUCCUUCAAGUCUGGCUUUGAACCUCCAGGAGACUUUCCAUUUGAAGAUUAC: 0.219 ratio
CUCCUCCGUACUUCUCUCUGAAAGGAAUUUUGUCGUGUUAACCCUAAAGAGAGUGUCCUUAAUAGCAGUGAGCGCUUGGAAGCUUCUCCACUGGUACAUUGGGUUUUCUGUUGGGUGAGU: 0.271 ratio
AACUGCCUAAAUUGUUGGGUCUGCUUCUGUGGUCUAUGCAUAUUUUAGCAUAAAUUUAGUUGAUAUUGCAGCCAGAGUAUUUACCUAGAACCAGACUAACCUAUAGCCCCUAUAAAUGCU: 9.71 ratio
UUUGGAAGAAAUGUAUUUGCAAUUUCAUAUAUACCAGGCUUGCUCUUUGCAGUGAAUGGGAAGCCUCAUUUUGGGGACCAAGAACCUGUACAAGGAUUUGUGAUGAACUUUUCCAAUGGG: 0.246 ratio
AUGAACUAACUGGUGUGUGAGAGAAGAAACUGGAGAUCUGAUCCGUGUGUGUGUGGGAGUUGCUUGGAGUCAGGGCUGGGGACAGGGGACAGCAGUGGAGGAAGGAGUGAUGUCCUCAGC: 0.569 ratio
ACUAAAGAACUGGAAAAGAUGACAAAUCGGCAAGGCAUGCUAUUGAAGAAGAAAGAAGAGUGUAUGAAGAAAAUUCGAGAACUUGGAUCACUUCCCCAGGAAGCAUUUGAAAAGUACCAG: 0.211 ratio
UGUAGGACUCCAUGCUGCCAGUUUCUUUUUUGGUUCCUUUCUGCCCAGGACUGCAUGAGUUUCCCAGCCCCAAGUGGGGGCUGCUAGGCCCUUCCUCCCUGCCUCUGGGAACCGGGCUGG: 0.384 ratio
UGUUGAGCCUCACAGCCCUUCCCCUUCGAGCAAAUUCAGCACAAAAGGCCUCUGUAAGAAAAAACUGAGUGGGGAGGGAGACACAGACCCUGGAGCCUUAUCCAAUGAUGGCUCUGAUGA: 0.0939 ratio
CCUUGGAGGCUCCAUGUCAACAUGGGGACUACCCUUCACAGAGUUACUACUAUUUCAAUGGCUCGCUGCACACUCACUCUUCUUAAAACUAUGUUAACGGAACUCCUGAGAGGUGGAUCC: 0.222 ratio
AUUGAAGUGUUCACUGACCUCAGCAGCCCGUUCAGCCAGGACCAACUGGACGUUAUAAUUUGUAACUUGAAGAAGUCUGGCAUCUCUCUGCAGUUCUUUUUGCCUUUUCCAAUCGACAAG: 0.175 ratio
AACCUUCCUUUUUUUAAAUUUUCUCCAGUCCCUGGGAGCAAGUUGCAGUCUUUUUUUUUUUUUUUUUUUUUUUUCCCUCUUGUGCUCAGUCGCCCUGUUCUUGAGGUCUCUUUUCUCUAC: 1.32 ratio

Some of these lines once more (set 2):
TCAGGTTTCCTTCTCCTTTAGTGCTAG: 1.94 z-score
GACGGACTGGGGACTAGGGACGTGCTA: -0.261 z-score
GGGCATTTGGAAAATGTAAACGTGCTA: -0.124 z-score
